Published values collected from several papers.
Each numbered part is a random draw from the data of one study; scales do not carry over between parts.

Block 1
Target: Sal-like protein 4, full length isoform A (SALL4, Homo sapiens, UniProt Q9UJQ4, residues 1-1053)
UniProt Q9UJQ4, sequence (whole entry, looked up): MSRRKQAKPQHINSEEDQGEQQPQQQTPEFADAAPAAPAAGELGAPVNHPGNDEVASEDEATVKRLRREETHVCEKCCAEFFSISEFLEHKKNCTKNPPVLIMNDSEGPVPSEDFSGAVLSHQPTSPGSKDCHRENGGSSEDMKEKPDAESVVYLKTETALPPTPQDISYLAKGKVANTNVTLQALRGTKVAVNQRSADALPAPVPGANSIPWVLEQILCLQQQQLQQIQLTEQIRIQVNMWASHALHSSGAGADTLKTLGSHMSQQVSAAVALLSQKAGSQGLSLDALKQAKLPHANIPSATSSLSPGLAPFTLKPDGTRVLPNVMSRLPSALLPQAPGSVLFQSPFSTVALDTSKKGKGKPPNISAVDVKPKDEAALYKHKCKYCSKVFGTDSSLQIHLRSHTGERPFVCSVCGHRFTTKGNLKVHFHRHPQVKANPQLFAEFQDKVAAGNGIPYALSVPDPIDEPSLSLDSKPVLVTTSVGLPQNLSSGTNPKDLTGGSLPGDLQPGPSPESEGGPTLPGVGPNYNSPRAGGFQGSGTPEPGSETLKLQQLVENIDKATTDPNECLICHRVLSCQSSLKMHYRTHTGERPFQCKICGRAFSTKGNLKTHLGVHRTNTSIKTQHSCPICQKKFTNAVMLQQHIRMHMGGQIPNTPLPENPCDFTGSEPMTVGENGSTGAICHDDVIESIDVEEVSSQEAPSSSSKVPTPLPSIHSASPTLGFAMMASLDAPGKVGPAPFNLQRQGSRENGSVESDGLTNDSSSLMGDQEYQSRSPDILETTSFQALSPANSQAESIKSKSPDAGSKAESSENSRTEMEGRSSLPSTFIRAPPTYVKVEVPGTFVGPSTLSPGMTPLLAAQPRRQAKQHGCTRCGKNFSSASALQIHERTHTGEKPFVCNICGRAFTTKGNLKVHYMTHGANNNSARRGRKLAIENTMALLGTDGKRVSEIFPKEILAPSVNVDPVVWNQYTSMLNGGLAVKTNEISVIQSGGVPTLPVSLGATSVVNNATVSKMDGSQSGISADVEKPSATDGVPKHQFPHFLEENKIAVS
Technique: universal PBM
Molecule type: double-stranded DNA, one strand shown
Medium: in vitro
Concentration: 600 nM
Notes: 8-mer, flanks averaged, mean of replicates
Reading: higher = stronger binding
| Oligonucleotide | E-score |
| --- | --- |
| CGGTATTA | 0.125 |
| AAAGGTGT | -0.05 |
| GCTCATAA | 0.199 |
| ATGACCTG | 0.0231 |
| AGGTACCT | -0.298 |
| ACGCATGA | 0.0406 |
| CATAGGTA | 0.0628 |
| CGGGGCGA | -0.237 |
| ATTAGCGA | 0.169 |

Block 2
Target: Phosphate system positive regulatory protein PHO4, full length, GST-tagged (PHO4, Saccharomyces cerevisiae, UniProt P07270, residues 1-312)
Technique: competition protein-binding microarray
Molecule type: double-stranded DNA, one strand shown
Medium: in vitro
Concentration: 2 µM
Notes: whole 60-bp probe, lowest competitor level
Added: Cbf1 competitor, 0.05 µM
Reading: higher = stronger binding
Construct (chain): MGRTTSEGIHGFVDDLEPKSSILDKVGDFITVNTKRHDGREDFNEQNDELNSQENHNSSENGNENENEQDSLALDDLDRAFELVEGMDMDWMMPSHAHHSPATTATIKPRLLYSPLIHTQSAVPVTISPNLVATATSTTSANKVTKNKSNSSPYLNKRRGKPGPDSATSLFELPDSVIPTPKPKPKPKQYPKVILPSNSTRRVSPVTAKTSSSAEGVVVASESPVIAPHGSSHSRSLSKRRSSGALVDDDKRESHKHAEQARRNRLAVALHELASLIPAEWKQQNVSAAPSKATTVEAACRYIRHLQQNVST
| Oligonucleotide | fluorescence intensity |
| --- | --- |
| AAAGCGGTAATTTGACTAGTGGGTGCAGATATCTATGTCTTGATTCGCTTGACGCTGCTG | 4760 a.u. |
| CGGGGTTAAGTTTGAATTGTGGGTGGCTTGCAGCAGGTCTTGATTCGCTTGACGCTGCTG | 4670 a.u. |
| AAGAAGGGTATTTGTCACGTCAAGCCAGTGAGATGTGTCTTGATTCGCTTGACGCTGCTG | 3980 a.u. |
| CTTCTGTAAATTTGCAGGGTGGGTGGACGCGCCCCGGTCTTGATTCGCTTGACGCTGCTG | 4540 a.u. |
| AAAGCGGTAATTTGGATGGTGGGTGCAGATATCTATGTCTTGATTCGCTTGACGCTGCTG | 4660 a.u. |
| TTGGGATATTAGCGTCACAATGTTTTAACTATTTGGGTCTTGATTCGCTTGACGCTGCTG | 3890 a.u. |
| AAGTTCGCCAAGTTACACATGGGTACTGATGATGTCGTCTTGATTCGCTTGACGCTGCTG | 7630 a.u. |
| TGCGCAACAACTTTTCACGTGAGATTATGTCTAGAAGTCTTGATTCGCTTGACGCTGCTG | 10500 a.u. |
| TGCGCAACAACTTGCAGCGTGGGTGTATGTCTAGAAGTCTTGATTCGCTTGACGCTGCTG | 8070 a.u. |

Block 3
Target: Histone acetyltransferase KAT6A, winged helix 2, GST fusion (KAT6A, Homo sapiens, UniProt Q92794, residues 85-181)
Technique: protein binding microarray
Molecule type: double-stranded DNA, one strand shown
Medium: in vitro
Concentration: not given
Notes: 8-mer, flanks averaged, mean of 2 arrays, mostly near background
Relative to: not given
Reading: higher = stronger binding
Residues (chain): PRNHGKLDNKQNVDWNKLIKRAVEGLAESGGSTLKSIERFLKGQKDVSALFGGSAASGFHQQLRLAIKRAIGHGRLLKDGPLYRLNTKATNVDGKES
| Oligonucleotide | E-score |
| --- | --- |
| CCCTGAGC | 0.0327 |
| AGGTTAAT | 0.111 |
| AACCTAAA | 0.0552 |
| ATCACCAG | 0.0037 |
| ATAAACGG | 0.0248 |
| AGTGGCCG | 0.109 |
| CTGTAAAC | -0.173 |
| ATAAGCTG | -0.106 |

Other studies, line by line
| Molecule | target | assay | system | conditions | how to read | measurement | result |
| --- | --- | --- | --- | --- | --- | --- | --- |
| PhoQ, residues 284 288 289 292 302 303 NLCILV | PhoP, residues 12 14 15 18 19 VHSCL (Escherichia coli, UniProt P23836) | Sort-seq, refers to: YFP reporter | E. coli | PhoQ-PhoP variant library, added: 10 µM Mg2+ | relative to: high Mg2+ state, higher = stronger signaling | fold induction | 4.92 |

For quick reference, copied from above (block 2):
| Oligonucleotide | fluorescence intensity |
| --- | --- |
| CGGGGTTAAGTTTGAATTGTGGGTGGCTTGCAGCAGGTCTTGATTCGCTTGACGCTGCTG | 4670 a.u. |
| AAGAAGGGTATTTGTCACGTCAAGCCAGTGAGATGTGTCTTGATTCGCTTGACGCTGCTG | 3980 a.u. |
| CTTCTGTAAATTTGCAGGGTGGGTGGACGCGCCCCGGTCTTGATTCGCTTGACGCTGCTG | 4540 a.u. |
